Published values collected from several papers.
Numbered parts are unrelated; each lists some results of a single study. Substitutions count along the parent as printed.

Set 1
Target: Sal-like protein 4, full length isoform B (SALL4, Homo sapiens, UniProt Q9UJQ4-2, residues 1-616)
Technique: universal PBM
Molecule type: double-stranded DNA, one strand shown
Sample: in vitro
Concentration: not given
Notes: 8-mer, flanks averaged, mean of replicates
Direction: higher = stronger binding
Quantity: E-score
Construct (chain): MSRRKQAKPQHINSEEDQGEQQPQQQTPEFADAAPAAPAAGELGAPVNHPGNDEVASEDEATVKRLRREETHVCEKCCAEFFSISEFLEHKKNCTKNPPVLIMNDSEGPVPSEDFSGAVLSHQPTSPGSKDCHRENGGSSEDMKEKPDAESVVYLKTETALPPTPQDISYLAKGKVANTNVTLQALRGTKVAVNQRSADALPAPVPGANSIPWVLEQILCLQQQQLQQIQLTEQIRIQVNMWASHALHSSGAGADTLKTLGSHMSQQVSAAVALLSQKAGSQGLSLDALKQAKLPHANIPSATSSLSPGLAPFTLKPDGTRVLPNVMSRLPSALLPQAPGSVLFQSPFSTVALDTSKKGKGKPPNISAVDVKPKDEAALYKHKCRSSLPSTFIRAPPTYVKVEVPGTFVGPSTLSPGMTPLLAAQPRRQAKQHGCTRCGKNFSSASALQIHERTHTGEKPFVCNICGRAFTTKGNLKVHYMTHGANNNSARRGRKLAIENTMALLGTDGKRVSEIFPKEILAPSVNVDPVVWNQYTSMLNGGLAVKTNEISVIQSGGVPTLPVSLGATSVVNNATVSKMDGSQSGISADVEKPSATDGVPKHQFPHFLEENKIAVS
ATAATGGA: 0.278
TAATGAAA: 0.34
CTGCGCCA: -0.224
ATTAGAGA: 0.132
AGGCGATA: 0.077
GGCCAACA: -0.168
CTGTCCAC: -0.102
CACCCGAA: -0.0192
CCATCGGC: -0.263
ATAGAGCA: 0.143
AGACCAGG: -0.213
GTATCCGA: -0.124
CCAAAGGA: -0.133
ATTATTCC: 0.19
CTATTTGC: 0.128
CCAGTACG: -0.0386
CACCGCTG: -0.188
CCGGGTAA: -0.18
ATGTCCGA: -0.0353
ATACGGTA: 0.202
AGTTTCTG: -0.147
CGACCATC: -0.208

Set 2
Target: Histone acetyltransferase KAT6A, winged helix 2, GST fusion (KAT6A, Homo sapiens, UniProt Q92794, residues 85-181)
Technique: protein binding microarray
Molecule type: double-stranded DNA, one strand shown
Sample: in vitro
Concentration: not given
Notes: 8-mer, flanks averaged, mean of 2 arrays, mostly near background
Baseline: not given
Direction: higher = stronger binding
Quantity: E-score
Target sequence (chain): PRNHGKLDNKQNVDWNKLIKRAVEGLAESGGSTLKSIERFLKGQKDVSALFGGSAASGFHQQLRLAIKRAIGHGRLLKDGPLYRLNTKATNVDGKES
CAAGCTTG: -0.123
CACCCACG: 0.163
AGAAGAAT: -0.0356
GCCGGATA: 0.164
AGCTATCC: -0.203
ATTCGCAC: -0.1
ATGGAGTG: -0.163
ATGACCTG: -0.0485
CCGACCCC: -0.109
CGCGAGAA: -0.0268
TAGAGCCA: -0.258
ACGTACTA: -0.099
CCGGGACA: 0.0759
TGATCGCA: 0.0809
CCGTCTTC: 0.0222
GAGATTAC: -0.186
ACTAAACC: -0.0041
AATTAAGC: 0.117
CGAGTATA: -0.0257
AGTGTCGC: 0.141
TTCGAAAA: 0.19
GGTACTAC: -0.0214

Set 3
Target: ABI1, truncated, D143A, DHFR fusion (Arabidopsis thaliana)
Technique: DHFR PCA, deep sequencing
Sample: yeast
Notes: methotrexate growth selection, single substitutions
With: (+)-ABA 0.39 µM
Baseline: wild-type fitted maximum
Direction: higher = stronger binding
Quantity: relative binding score
Parent: PYL1, truncated, DHFR fusion (Arabidopsis thaliana); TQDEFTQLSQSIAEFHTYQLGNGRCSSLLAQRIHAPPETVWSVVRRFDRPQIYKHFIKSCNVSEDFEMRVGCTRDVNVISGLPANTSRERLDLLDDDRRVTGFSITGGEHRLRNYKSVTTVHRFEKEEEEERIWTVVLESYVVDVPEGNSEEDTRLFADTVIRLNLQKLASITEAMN
E125N: 40.7%
T1N: 47.8%
L169T: -11.7%
E152F: -0.97%
E89R: -5.78%
H34Y: 43%
F157N: -3.08%
Q2T: 38.2%
E4S: 18.8%
D65R: 12.6%
F66L: 0.917%
S171P: 9.01%
G71P: 1.09%
I162L: 0.313%
E129I: 22.4%
R132A: 67.9%
D97A: 46.2%
N85R: 72.3%
R69T: 44.3%

Set 4
Target: CREBL2, bZIP domain (human)
Technique: DHFR protein complementation
Sample: yeast
Notes: single substitutions, most at no-binding floor
Baseline: wild-type JUN-FOS pair
Direction: higher = stronger binding
Quantity: binding fitness
Parent: JUN, bZIP domain (human); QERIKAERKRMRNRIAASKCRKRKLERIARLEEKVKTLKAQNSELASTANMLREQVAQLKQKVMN; partner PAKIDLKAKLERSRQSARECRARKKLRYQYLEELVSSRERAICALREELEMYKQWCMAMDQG
L45A: -1.48 natural log
A40S: -1.57 natural log
T37Y: -1.59 natural log
L31A: -1.54 natural log
V35R: -1.45 natural log
M51D: -1.23 natural log
K39M: -1.4 natural log
A29E: -1.39 natural log
L31V: -1.31 natural log
E33V: -1.47 natural log
A57S: -1.25 natural log
L38Q: -1.53 natural log
T37R: -1.5 natural log
Q55S: -1.46 natural log
T48W: -1.5 natural log
N42C: -1.43 natural log
Q55L: -1.57 natural log
A46L: -1.37 natural log
L45I: -1.42 natural log
S47D: -1.49 natural log
E33I: -1.43 natural log
L38H: -1.59 natural log

Some of these lines once more (set 4):
L31A: -1.54 natural log
A57S: -1.25 natural log
S47D: -1.49 natural log
A40S: -1.57 natural log
A46L: -1.37 natural log
L45A: -1.48 natural log
T37Y: -1.59 natural log
L31V: -1.31 natural log
T48W: -1.5 natural log
M51D: -1.23 natural log
L38H: -1.59 natural log
L38Q: -1.53 natural log
